Results collected from several papers.
Compare with care: the assays were run in different laboratories. ± gives the spread as reported.

CC1(C)CCC2(CO)C(=C3C=CC4[C@@]5(C)CCC(O)[C@@](C)(CO)C5CC[C@@]4(C)[C@]3(C)C[C@H]2O)C1 (stereo partly drawn)
Papp apical to basolateral (Caco-2 monolayer; Caco-2 bidirectional transport; 10 µM, 3 h, 37 °C): 5.18 ± 0.404 ×10⁻⁶ cm/s

O=C(O)C1OC(Oc2c(-c3ccccc3)oc3ccc(O)cc3c2=O)C(O)C(O)C1O (stereo not drawn)
intracellular glucuronide concentration (HeLa-UGT1A9 cells; item: 3-O-glucuronide; 0.3125 µM aglycone loading, end of excretion): 53.2 ± 5.63 µM

CC1(C)CCC23COC4(C=CC5C6(C)CCC(O)C(C)(CO)C6CCC5(C)C4(C)CC2O)C3C1 (stereo not drawn)
recovery apical to basolateral (Caco-2 monolayer; Caco-2 bidirectional transport; 10 µM, 3 h, 37 °C): 103%

CCC1=C(CC)C2=[N+]3C1=Cc1c(CC)c(CC)c4[n]1[Ir-3]31([c]3n(C(C)C)cc[n+]3C(C)C)([c]3n(C(C)C)cc[n+]3C(C)C)[n]3c(c(CC)c(CC)c3=CC3=[N+]1C(=C4)C(CC)=C3CC)=C2.F[P-](F)(F)(F)(F)F
cellular uptake (NCI-H460; ICP-MS; 1 µM, 2 h): 159 ± 29.5 µg iridium/g protein

CCC(=O)N(C)c1ccc(Cl)c(Cl)c1
cells with multiple aberrations (CHO-WBL; 0.032 mg/mL, 3 h, with S9 activation): 0%

CC12CCCC(n3cc(C(=O)N4CCCC(N)C4)nn3)(C1)C1CC(C)(C)C1CC2 (stereo not drawn)
viability (HT-29; 0.5 µM, 72 h, with: NAC 2 mM pretreatment 8 h): 95.4%

O=c1[nH]cc(C(c2cccc(Cl)c2)c2c[nH]c(=O)[nH]c2=O)c(=O)[nH]1
cytotoxicity (Mo7e; 1 µg/mL): not toxic

O=C(O)C1OC(Oc2c(-c3ccccc3)oc3cc(O)ccc3c2=O)C(O)C(O)C1O (stereo not drawn)
intracellular glucuronide concentration (HeLa-UGT1A9 cells; item: 3-O-glucuronide; 0.3125 µM aglycone loading, end of excretion): 0.9 ± 0.04 µM

CC(C)C[C@H](NC(=O)[C@H](CCCNC(=N)N)NC(=O)[C@H](CCCNC(=N)N)NC(=O)[C@H](CCCCN)NC(=O)[C@@H](NC(=O)[C@@H]1CCCN1)C(C)C)C(=O)N[C@@H](Cc1ccccc1)C(=O)NCC(N)=O
cytotoxicity (U2OS; CellTiter-Glo; up to 50 µM, 24 h): not toxic

COc1ccc(S(=O)(=O)N(CC(=O)O)c2c(C)c(C)c(N(CC(=O)O)S(=O)(=O)c3cccnc3)c(C)c2C)cc1
cytotoxicity (H9c2; MTS; up to 50 µM, 24 h): not toxic

CCCCn1cc(C(=O)O)c(=O)c2cc(F)c3[nH]nnc3c21
IC50 (SW480; cell growth, SRB; 72 h): 74 ± 6.66 µg/mL

O=C(CCC(=O)NCCS(=O)(=O)O)NCCNC(=O)[C@@H](Cc1ccccc1)NC(=O)[C@@H](Cc1ccccc1)NC(=O)CCNc1ccc([N+](=O)[O-])c2nonc12
intracellular concentration (HeLa; 200 µM, 24 h, after one PBS wash): 0.6 mM

O=C1CCc2ccc(NS(=O)(=O)c3cccc(Oc4ccccc4)c3)cc2N1
cytotoxicity (HMC3; up to 1 µM): not toxic

O=c1[nH]cc(C(c2ccc(Cl)cc2)c2c[nH]c(=O)[nH]c2=O)c(=O)[nH]1
cytotoxicity (Mo7e; 1 µg/mL): not toxic

O=C(/C=C/c1ccccc1)c1ccccc1O
cytotoxicity (K562 transfected; concentration not given, with: TNF-alpha): toxic

COc1cc2c(cc1O)[C@]1(O)C(=O)c3c(O)cc4c(c3O[C@@H]1CO2)C=CC(C)(C)O4
viability (SW480; cell growth or viability, MTT; 6.25 µg/mL): 124%

O=C(O)C1OC(Oc2ccccc2-c2cc(=O)c3ccccc3o2)C(O)C(O)C1O (stereo not drawn)
intracellular glucuronide concentration (HeLa-UGT1A9 cells; 15 µM aglycone loading, end of excretion): 58.1 ± 11.6 µM

CC(C)c1cnn2c(NCc3ccccc3)cc(N[C@@H](CO)[C@H](O)CO)nc12
efflux ratio (Caco-2 monolayer; transwell permeability; 10 µM, with: FTC and verapamil 10 µM; reference: Papp B-A over Papp A-B): 2.5

O=C(O)C1OC(Oc2ccc(-c3cc(=O)c4ccccc4o3)cc2)C(O)C(O)C1O (stereo not drawn)
intracellular glucuronide concentration (HeLa-UGT1A9 cells; 15 µM aglycone loading, end of excretion): 146 ± 34.8 µM

CC(=O)N[C@H](C(=O)N[C@H](C(=O)N[C@@H](CCCNC(=N)N)C(=O)N1Cc2ccccc2C[C@H]1C(=O)N[C@@H](Cc1ccccc1)C(N)=O)C1CCCCC1)C(C)C
cytokine level (human PBMC; Bio-Plex multiplex, item: G-CSF; 500 µg/mL, 24 h): 6 ± 7.6 pg/mL

O=C(OCc1cccc(O)c1O)c1ccc(O)c(CO)c1
cytotoxicity (H9c2; 20 µM, 48 h): not toxic

CCC1=C(CC)C2=[N+]3C1=Cc1c(CC)c(CC)c4[n]1[Ir-3]31([C]#[N+]c3ccc(OC)cc3)([C]#[N+]c3ccc(OC)cc3)[n]3c(c(CC)c(CC)c3=CC3=[N+]1C(=C4)C(CC)=C3CC)=C2.F[B-](F)(F)F
cellular uptake (NCI-H460; ICP-MS; 1 µM, 2 h): 116 ± 20.6 µg iridium/g protein

C=CC(=O)Nc1cccc2c1cc(C)n2-c1nc2c(c(NCc3ccccc3)n1)CCCC2
viability (Huh-7 cells, uninfected; 0.25 µM, 5 days): 90 ± 3%

Cn1c(=O)c(=O)n(C)c2cc(S(=O)(=O)NNC(=S)Nc3ccccc3)ccc21
inhibition (hTERT-RPE1; cell viability, MTT; concentration not given): 6.9%

OC(Cc1cc(-c2ccc(C(O)C(F)(F)F)s2)sc1-c1ccc(-c2sc(-c3ccc(C(O)C(F)(F)F)s3)cc2CC(O)C(F)(F)F)s1)C(F)(F)F (stereo not drawn)
cellular uptake (primary human fetal cortical neurons; LC-MS/MS; 4 µM, 30 min; reference: applied): 5%

CC(C)=CCc1c2c(c(O)c3c(=O)c(-c4ccc(O)cc4)coc13)CC(C(C)(C)O)O2 (stereo not drawn)
viability (SW480; cell growth or viability, MTT; 12.5 µg/mL): 140%

COc1cccc2c1C(=O)c1c(O)c3c(c(O)c1C2=O)CC(O)(C(=O)CO)CC3OC1CC(NC(=O)C[C@H](N)C(=O)O)C(O)C(C)O1 (stereo partly drawn)
cellular uptake (HepG2 (LAT1-positive); HPLC; 20 µg/mL, 2 h, serum-free medium): 1.45 ± 0.046 µg/mL

CC(C)(C)NC(=O)[C@@H]1C[C@@H]2CCCC[C@@H]2CN1C[C@@H](OC(=O)CCC(=O)OC[C@H](O)[C@H]1OC(=O)C(O)=C1O)[C@H](Cc1ccccc1)NC(=O)[C@H](CC(N)=O)NC(=O)c1ccc2ccccc2n1
efflux ratio (Caco-2 monolayers; 25 µM, 3 h; reference: Papp B-A over Papp A-B): 1.62

CCCCn1cc(C(=O)O)c(=O)c2cc(F)c(N)c([N+](=O)[O-])c21
IC50 (SW480; cell growth or viability, SRB): 670 µM

COc1ccc(-c2coc3c(CC=C(C)C)c(O)c(CC=C(C)C)c(O)c3c2=O)cc1O
viability (SW480; cell growth or viability, MTT; 100 µg/mL): 7.83%

O=C(O)C1OC(Oc2ccc3oc(-c4ccccc4)cc(=O)c3c2)C(O)C(O)C1O (stereo not drawn)
intracellular glucuronide concentration (HeLa-UGT1A9 cells; 15 µM aglycone loading, end of excretion): 72.7 ± 4.19 µM

Cc1nc([C@@H](NC(=O)c2ccc(-c3ccc(Cl)cc3)[nH]2)[C@H]2CCCCN2)sc1CO
CC50 (U87/CD4/CCR5; cell growth or viability, XTT): ~30 µM

CC(C)=CCc1cc(-c2coc3cc(O)c(CC=C(C)C)c(O)c3c2=O)ccc1O
viability (SW480; cell growth or viability, MTT; 12.5 µg/mL): 134%

O=C(/C=C/c1ccccc1O)c1ccccc1
cytotoxicity (K562 transfected; concentration not given, with: TNF-alpha): toxic

O=C(O)C1OC(Oc2c(-c3cccc(O)c3)oc3ccccc3c2=O)C(O)C(O)C1O (stereo not drawn)
intracellular glucuronide concentration (HeLa-UGT1A9 cells; item: 3-O-glucuronide; 0.3125 µM aglycone loading, end of excretion): 3.65 ± 0.09 µM

CC(=O)NC1C(N=C(N)N)C=C(C(=O)OC(C)OC(=O)C(N)C(C)C)OC1C(O)C(O)CO (mixture of isomers)
apparent permeability ratio (Caco-2 monolayer; apical to basolateral; reference: isoleucyl prodrug): ~3 fold

Repeated from above:
COc1cccc2c1C(=O)c1c(O)c3c(c(O)c1C2=O)CC(O)(C(=O)CO)CC3OC1CC(NC(=O)C[C@H](N)C(=O)O)C(O)C(C)O1 (stereo partly drawn)
cellular uptake (HepG2 (LAT1-positive); HPLC; 20 µg/mL, 2 h, serum-free medium): 1.45 ± 0.046 µg/mL

CC(C)C[C@H](NC(=O)[C@H](CCCNC(=N)N)NC(=O)[C@H](CCCNC(=N)N)NC(=O)[C@H](CCCCN)NC(=O)[C@@H](NC(=O)[C@@H]1CCCN1)C(C)C)C(=O)N[C@@H](Cc1ccccc1)C(=O)NCC(N)=O
cytotoxicity (U2OS; CellTiter-Glo; up to 50 µM, 24 h): not toxic

CCCCn1cc(C(=O)O)c(=O)c2cc(F)c(N)c([N+](=O)[O-])c21
IC50 (SW480; cell growth or viability, SRB): 670 µM

CC(C)(C)NC(=O)[C@@H]1C[C@@H]2CCCC[C@@H]2CN1C[C@@H](OC(=O)CCC(=O)OC[C@H](O)[C@H]1OC(=O)C(O)=C1O)[C@H](Cc1ccccc1)NC(=O)[C@H](CC(N)=O)NC(=O)c1ccc2ccccc2n1
efflux ratio (Caco-2 monolayers; 25 µM, 3 h; reference: Papp B-A over Papp A-B): 1.62

O=c1[nH]cc(C(c2cccc(Cl)c2)c2c[nH]c(=O)[nH]c2=O)c(=O)[nH]1
cytotoxicity (Mo7e; 1 µg/mL): not toxic
